Results of several laboratories.
Compare with care: the assays were run in different laboratories. “And” joins repeats or separate records; there may be more than shown. ± gives the spread as reported.
AURKA: Aurora kinase A (AURKA, Homo sapiens, UniProt O14965)
Thiamine transporter ThiT: Thiamine transporter ThiT (Lactococcus lactis subsp. cremoris, UniProt A2RI47)

Structure (SMILES) | target | assay | test system | conditions | Kd
COc1ccccc1CNC(=O)CCn1c(=O)[nH]c2ccsc2c1=O | Heat shock protein 90, N-terminal domain (Plasmodium falciparum, UniProt Q8IC05) | binding, SPR | – | – | 13.5 µM and > 10 µM
COc1cc(C(=O)NS(=O)(=O)c2ccc(C(F)(F)F)cc2)ccc1Cc1cn(C)c2ccc(NC(=O)OC3CCCC3)cc12 | Tumor necrosis factor receptor superfamily member 1A, extracellular domain (Homo sapiens, UniProt P19438) | binding, 19F NMR | PBS | pH 7.4 | 4.6 µM
Nc1ncnc2c1ncn2[C@@H]1O[C@H](CO)[C@@H](O[C@H]2O[C@H](CO)[C@@H](OP(=O)(O)O)[C@H](OP(=O)(O)O)[C@H]2O)[C@H]1O | Inositol 1,4,5-trisphosphate-gated calcium channel ITPR1, N-terminal region (Itpr1, Rattus norvegicus, UniProt P29994, del318-332) | [3H]IP3 competition binding | – | N-terminal fragment | 0.0105 µM
C[C@H](N)C(=O)N[C@@H](CCCNC(=N)N)C(=O)N[C@H](C(=O)N[C@@H](CCCC[N+](C)(C)C)C(=O)N[C@@H](CCC(N)=O)C(=O)N[C@H](C(=O)N[C@@H](C)C(=O)N[C@@H](CCCNC(=N)N)C(=O)N[C@@H](CCCCN)C(=O)N[C@@H](CO)C(=O)O)[C@@H](C)O)[C@@H](C)O | Autoimmune regulator, PHD1 domain (AIRE, Homo sapiens, UniProt O43918, D297A) | tryptophan fluorescence titration | – | pH 6.3, 20 °C | > 500 µM
C[C@H](CCC(=O)NCCC(c1ccccc1)c1ccccc1)[C@H]1CC[C@H]2[C@@H]3CC[C@@H]4CC(=O)CC[C@]4(C)[C@H]3CC[C@]12C | RORC (Homo sapiens, UniProt P51449) | binding, MST | – | – | 0.0572 µM
COc1c2[nH]c(=O)c(=O)c2c(OC)c2c(=O)c3ccccc3c(=O)c12 | AURKA | binding, tryptophan fluorescence quenching | – | pH 7.5, 25 °C, AurA 3.0 µM | 10.7 ± 0.9 µM
COC(=O)CC[C@@H](NC(=O)[C@H](C)NC(=O)[C@@H](C)O[C@H]1[C@H](O)[C@@H](CN)OC(O)[C@@H]1NC(C)=O)C(N)=O (stereo partly drawn) | NOD2 (Homo sapiens, UniProt Q9HC29) | binding | – | pH 6.5 | 0.002 to 0.01 µM
Cc1ncc(Cc2csc(C=NNC(=O)[C@@H](N)Cc3ccc(O)cc3)c2C)c(N)n1 (mixture of isomers) | Thiamine transporter ThiT | binding, ITC | – | – | 8.41 µM
CCCCCCCCCc1nc2cc(Cl)ccc2c(=O)n1CCCN | Staphylococcus aureus membranes | membrane binding | – | – | 6.6 ± 0.2 µM
Cc1ncc(Cc2csc(C=NNC(=O)Cc3cccnc3)c2C)c(N)n1 (mixture of isomers) | Thiamine transporter ThiT | binding, ITC | – | – | 3.02 µM
[3H]CC([3H])C(=O)NCc1cc(C(=O)NCCN2CCC(N3CCC(n4c(=O)[nH]c5ccccc54)CC3)CC2)cc(C(=O)NCCN2CCN(CCCCC3CCN(CC(=O)N4c5ccccc5NC(=O)c5ccccc54)CC3)CC2)c1 (stereo not drawn) | CHRM2 (Homo sapiens, UniProt P08172) | association and dissociation kinetics | CHO cell homogenates | 23 °C | 7.2e-05 ± 2e-06 µM
O=C(NO)c1cnc(NC2(c3cccc(F)c3)CCCCC2)nc1 | HDAC6 (Homo sapiens, UniProt Q9UBN7) | chemoproteomic pulldown | SW-620/MV4-11 lysate | 1 h, 30 °C | 0.398 µM
CC(=O)N[C@@H]1[C@@H](O[C@@H]2O[C@H](C(=O)O)[C@@H](O[C@@H]3O[C@H](COS(=O)(=O)O)[C@@H](OS(=O)(=O)O)[C@H](O[C@@H]4O[C@H](C(=O)O)[C@@H](OS(=O)(=O)O)[C@H](OS(=O)(=O)O)[C@H]4OS(=O)(=O)O)[C@H]3NC(C)=O)[C@H](OS(=O)(=O)O)[C@H]2OS(=O)(=O)O)[C@H](OS(=O)(=O)O)[C@@H](COS(=O)(=O)O)O[C@H]1N=[N+]=[N-] | CXCL12 (Homo sapiens, UniProt P48061) | ligand displacement, FP | – | – | 3.4 µM
N=C(N)NCCC[C@H](NC(=O)[C@H](CS)NC(=O)[C@H](Cc1ccc(O)cc1)NC(=O)[C@H](Cc1c[nH]c2ccccc12)NC(=O)[C@H](CCCNC(=N)N)NC(=O)[C@H](Cc1c[nH]c2ccccc12)NC(=O)[C@H](Cc1c[nH]cn1)NC(=O)CNC(=O)CN)C(=O)NCC(=O)NCC(=O)N[C@@H](CCCCN)C(N)=O | supercoiled pUC19 plasmid DNA | tryptophan fluorescence | – | per base pair, 1 mM TCEP | 2.5 ± 0.8 µM
O=C1c2ccccc2C(=O)c2c1c(O)c1nc(Cc3ccccc3)[nH]c1c2O | AURKA | binding, BLI | – | – | 26 µM
C=CC(=O)N1C[C@H](C)N(c2nc(OC[C@@]34CCCN3C[C@H](F)C4)nc3c(F)c(-c4ccc(F)c5sc(N)c(C#N)c45)c(C(F)(F)F)cc23)C[C@H]1C | CDK8 (Homo sapiens, UniProt P49336) | binding, competition with immobilised ligand | – | – | 4.6 µM
CC(C)c1c(-c2cccc3[nH]ccc23)[nH]c(C(=O)O)c1-c1c(Cl)ccc2[nH]ccc12 | BMI1/RNF2 (Homo sapiens, UniProt P35226+Q99496) | – | – | – | 2.8 ± 0.45 µM
Cc1oc2c(O)c3c(c(O)c2c1C(=O)N1CCC(N)C1)C(=O)c1ccccc1C3=O (stereo not drawn) | AURKA | binding, tryptophan fluorescence quenching | – | pH 7.5, 25 °C, AurA 3.0 µM | 61 ± 13.7 µM
CNC(=N)NCCC[C@H](NC(=O)[C@H](C)N)C(=O)N[C@H](C(=O)N[C@@H](CCCCN)C(=O)N[C@@H](CCC(N)=O)C(=O)N[C@H](C(=O)N[C@@H](C)C(=O)N[C@@H](CCCNC(=N)N)C(=O)N[C@@H](CCCCN)C(=O)N[C@@H](CO)C(=O)O)[C@@H](C)O)[C@@H](C)O | Autoimmune regulator, PHD1 domain (AIRE, Homo sapiens, UniProt O43918) | binding, isothermal titration calorimetry | – | pH 7.2, 23 °C, added: AIRE PHD1 wild type | 199 ± 12.4 µM
CN(C)CCNC(=O)c1cccc2c(NCCCCc3c(N)nc(N)nc3N)c3ccccc3nc12 | human cardiac troponin T pre-mRNA 18-nt fragment | binding, ITC | – | 25 °C | 334 ± 11 µM
O=C(CCCOc1ccc(Cl)cc1Cl)N/N=C/c1ccc[nH]1 | dxs (Deinococcus radiodurans, UniProt Q9RUB5) | binding, SPR | – | – | 260 µM
COc1cc2c(c(OC)c1OC)-c1c(cc3c(c1OC)OCO3)CC(C)C(C)(O)C2OC(=O)c1ccccc1 (stereo not drawn) | Taste receptor type 1 member 3 (TAS1R3, Homo sapiens, UniProt Q7RTX0) | binding | 0.5% DMSO | – | 0.000902 µM
CC(C)C[C@H](NC(=O)[C@@H](NC(=O)[C@H](CC(C)C)NC(=O)[C@H](CS)NC(=O)CNC(=O)[C@H](CO)NC(=O)[C@H](CCCCN)NC(=O)[C@H](CCCCN)NC(=O)[C@H](CCCCN)NC(=O)CNC(=O)[C@H](CCCNC(=N)N)NC(=O)[C@H](CCCNC(=N)N)NC(=O)[C@H](C)NC(=O)c1ccc2c(c1)C(=O)OC21c2ccc(O)cc2Oc2cc(O)ccc21)C(C)C)C(=O)O | geranylgeranyltransferase type-I (Rattus norvegicus, UniProt P53610+Q04631) | binding, fluorescence anisotropy | – | added: GGPP 1 µM | 0.056 ± 0.008 µM
C[n+]1ccc(/C=N/NC(=O)c2cncc(C(=O)N/N=C/c3cc[n+](C)c4ccccc34)n2)c2ccccc21 | MYC promoter G4 DNA | binding, native ESI-MS | 100 mM trimethylammonium acetate | 1 mM KCl | 0.12 µM

For quick reference, copied from above:
Structure (SMILES) | target | assay | test system | conditions | Kd
COC(=O)CC[C@@H](NC(=O)[C@H](C)NC(=O)[C@@H](C)O[C@H]1[C@H](O)[C@@H](CN)OC(O)[C@@H]1NC(C)=O)C(N)=O (stereo partly drawn) | NOD2 (Homo sapiens, UniProt Q9HC29) | binding | – | pH 6.5 | 0.002 to 0.01 µM
Cc1ncc(Cc2csc(C=NNC(=O)[C@@H](N)Cc3ccc(O)cc3)c2C)c(N)n1 (mixture of isomers) | Thiamine transporter ThiT | binding, ITC | – | – | 8.41 µM
